Measurements collected from several papers.
Each numbered part is a random draw from the data of one study; scales do not carry over between parts. Values joined by “and” are separate records of one study, mostly repeats; a detail may differ.
Sequence of UniProt Q96D53 (whole entry, looked up): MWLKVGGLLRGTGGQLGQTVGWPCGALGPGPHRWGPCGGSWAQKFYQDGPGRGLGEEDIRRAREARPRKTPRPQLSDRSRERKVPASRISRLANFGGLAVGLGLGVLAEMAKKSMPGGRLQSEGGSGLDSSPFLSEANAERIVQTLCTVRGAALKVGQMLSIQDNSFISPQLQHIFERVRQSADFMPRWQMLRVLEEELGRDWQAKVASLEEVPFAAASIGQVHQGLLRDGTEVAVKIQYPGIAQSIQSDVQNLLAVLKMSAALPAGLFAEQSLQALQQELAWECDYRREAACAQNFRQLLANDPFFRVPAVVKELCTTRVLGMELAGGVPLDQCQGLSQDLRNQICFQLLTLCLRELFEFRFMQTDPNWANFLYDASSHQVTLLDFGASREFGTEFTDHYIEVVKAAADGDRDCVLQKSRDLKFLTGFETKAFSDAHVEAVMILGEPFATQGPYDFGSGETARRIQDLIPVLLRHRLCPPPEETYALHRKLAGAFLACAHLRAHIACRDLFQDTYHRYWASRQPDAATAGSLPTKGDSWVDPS
Sequence of UniProt Q96SB4 (whole entry, looked up): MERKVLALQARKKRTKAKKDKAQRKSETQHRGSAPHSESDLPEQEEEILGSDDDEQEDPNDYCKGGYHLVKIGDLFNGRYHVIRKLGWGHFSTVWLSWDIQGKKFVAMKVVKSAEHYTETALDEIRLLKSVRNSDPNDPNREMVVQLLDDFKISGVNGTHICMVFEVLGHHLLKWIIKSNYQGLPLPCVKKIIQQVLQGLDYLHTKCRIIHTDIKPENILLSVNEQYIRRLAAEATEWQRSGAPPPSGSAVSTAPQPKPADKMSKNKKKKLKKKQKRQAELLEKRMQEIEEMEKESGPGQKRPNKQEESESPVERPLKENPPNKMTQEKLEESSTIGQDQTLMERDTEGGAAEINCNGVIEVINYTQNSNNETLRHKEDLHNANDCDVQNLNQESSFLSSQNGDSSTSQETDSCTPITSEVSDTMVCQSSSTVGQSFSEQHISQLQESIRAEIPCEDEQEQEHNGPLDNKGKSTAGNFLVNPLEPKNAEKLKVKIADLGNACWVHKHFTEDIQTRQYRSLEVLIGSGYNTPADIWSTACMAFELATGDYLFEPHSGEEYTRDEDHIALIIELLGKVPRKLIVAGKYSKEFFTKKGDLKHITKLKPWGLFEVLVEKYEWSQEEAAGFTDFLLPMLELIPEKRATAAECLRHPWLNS
Sequence of UniProt Q02750 (whole entry, looked up): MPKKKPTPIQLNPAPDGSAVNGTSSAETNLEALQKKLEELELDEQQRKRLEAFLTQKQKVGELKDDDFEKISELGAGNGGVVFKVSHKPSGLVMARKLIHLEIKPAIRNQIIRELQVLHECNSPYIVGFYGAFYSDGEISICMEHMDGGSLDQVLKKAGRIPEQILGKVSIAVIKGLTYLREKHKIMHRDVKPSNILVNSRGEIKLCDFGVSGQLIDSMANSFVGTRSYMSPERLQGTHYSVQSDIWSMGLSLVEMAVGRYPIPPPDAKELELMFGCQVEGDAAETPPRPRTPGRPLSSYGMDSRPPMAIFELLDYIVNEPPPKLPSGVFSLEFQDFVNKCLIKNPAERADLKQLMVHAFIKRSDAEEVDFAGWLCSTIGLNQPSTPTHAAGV

Sample 1 — Compound: O=C(Nc1ccccc1)Nc1cccc(Oc2ccc3nccn3n2)c1; tested at: 1 µM; endpoint: remaining binding
MAP2K7 (Homo sapiens, UniProt O14733); competitive binding panel, item: MKK7; baseline: vehicle: 100%
CAMKK2 (Homo sapiens, UniProt Q96RR4); competitive binding panel; baseline: vehicle: 100%
MAPK8 (Homo sapiens, UniProt P45983); competitive binding; JNK1: 100%
PRKCD (Homo sapiens, UniProt Q05655); competitive binding panel; baseline: vehicle: 84%
PAK5 (Homo sapiens, UniProt Q9P286); competitive binding panel, item: PAK7; baseline: vehicle: 71%
BTK (Homo sapiens, UniProt Q06187); competitive binding panel; baseline: vehicle: 100%
PRKAA1 (Homo sapiens, UniProt Q13131); competitive binding; AMPK-alpha1: 89%
MST1R (Homo sapiens, UniProt Q04912); competitive binding panel; baseline: vehicle: 100%
MAP2K1 (Homo sapiens, UniProt Q02750); competitive binding; MEK1: 100%
ACVRL1 (Homo sapiens, UniProt P37023); competitive binding panel; baseline: vehicle: 100%
MATK (Homo sapiens, UniProt P42679); competitive binding; CTK: 100%
Myosin-IIIb (MYO3B, Homo sapiens, UniProt Q8WXR4); competitive binding panel; baseline: vehicle: 100%
PKN1 (Homo sapiens, UniProt Q16512); competitive binding panel; baseline: vehicle: 100%

Sample 2 — read-out: enzyme activity; action: inhibitor; tested at: 0.5 µM; baseline: control; endpoint: remaining activity
Target: Mitogen-activated protein kinase kinase kinase kinase 5 (MAP4K5, Homo sapiens, UniProt Q9Y4K4)
Sequence of UniProt Q9Y4K4 (whole entry, looked up): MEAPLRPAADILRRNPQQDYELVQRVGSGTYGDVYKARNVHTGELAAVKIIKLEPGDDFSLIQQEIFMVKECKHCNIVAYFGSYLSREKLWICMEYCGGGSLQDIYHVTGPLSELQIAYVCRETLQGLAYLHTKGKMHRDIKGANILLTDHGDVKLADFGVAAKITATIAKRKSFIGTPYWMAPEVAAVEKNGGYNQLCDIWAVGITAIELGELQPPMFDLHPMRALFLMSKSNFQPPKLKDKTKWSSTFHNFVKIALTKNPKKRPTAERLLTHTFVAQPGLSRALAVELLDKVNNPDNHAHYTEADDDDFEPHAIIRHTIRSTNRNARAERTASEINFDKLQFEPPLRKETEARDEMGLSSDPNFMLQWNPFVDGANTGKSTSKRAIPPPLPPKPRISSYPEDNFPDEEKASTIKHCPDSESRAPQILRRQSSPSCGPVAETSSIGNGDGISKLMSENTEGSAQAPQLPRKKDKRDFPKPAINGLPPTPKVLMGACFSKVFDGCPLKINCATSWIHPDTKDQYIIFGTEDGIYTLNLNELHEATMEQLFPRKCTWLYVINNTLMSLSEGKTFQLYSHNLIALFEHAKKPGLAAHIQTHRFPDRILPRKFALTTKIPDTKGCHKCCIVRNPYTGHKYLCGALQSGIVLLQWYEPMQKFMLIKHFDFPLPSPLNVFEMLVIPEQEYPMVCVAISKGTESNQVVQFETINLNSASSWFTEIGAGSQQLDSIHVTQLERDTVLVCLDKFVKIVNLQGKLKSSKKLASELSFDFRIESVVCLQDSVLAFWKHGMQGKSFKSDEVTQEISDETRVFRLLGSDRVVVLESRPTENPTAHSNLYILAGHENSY
Nc1nc(Nc2ccc(S(N)(=O)=O)cc2)nn1C(=S)Nc1c(F)cccc1F: 1.71%
O=C1c2ccccc2-c2nc3nnnn3nc21: 78.7%
COc1cc2c(N3CCN(C(=O)Nc4ccc(OC(C)C)cc4)CC3)ncnc2cc1OCCCN1CCCCC1: 87.6%
O=Nc1c(-c2c(O)[nH]c3ccccc23)[nH]c2ccccc12: 37.8%
O=c1c(-c2ccc(F)cc2)c(-c2ccncc2)[nH]n1-c1ccc(Cl)cc1: 83.1%
NC(=O)c1cccc(-c2cc(Nc3ccc(OC(F)(F)F)cc3)ncn2)c1: 97.8%
COc1cc2c(Nc3ccc(Br)cc3F)ncnc2cc1OCC1CCN(C)CC1: 37.1%
CNc1cc2c(Nc3cccc(Br)c3)ncnc2cn1: 77.1%
N#C/C(=C(/N)SC1C=CC=CC1)c1cccc(C(O)c2ccncc2)c1 (stereo not shown): 94.8%
CCN(CC)CCCCN1c2ccccc2Oc2ccc(Cl)cc21: 93.4%
NC(=O)c1ccc(-c2nc(-c3ccc4c(c3)OCCO4)c(-c3ccccn3)[nH]2)cc1: 95.1%
O=C1NC(=O)/C(=C/c2ccc3c(c2)OC(F)(F)O3)S1: 88.1%
N#CC(c1ccnc(NCCc2cccnc2)n1)c1nc2ccccc2s1 (stereo not shown): 87.5%
CC(C)n1cnc2c(Nc3cccc(Cl)c3)nc(NCCO)nc21: 81.5%
O=C(O)/C=C/c1cc(Br)c(Br)c(Br)c1Br: 80.3%
O=C(c1ccccc1)c1ccc(N2CCOCC2)cc1O: 100%
CC(C)N(CCC(=O)c1ccc2ccccc2c1)Cc1ccccc1: 90.2%
FC(F)(F)c1ccc(/C=C/c2nc(COc3ccc(CCCCn4ccnn4)cc3)co2)cc1: 96.5%
CC(C)(C)c1nc2c3cc[nH]c(=O)c3c3cc(F)ccc3c2[nH]1: 65.8%
CCCCc1c(-c2ccc(O)cc2)[nH]c2nccnc12: 65.3%
c1cc(-c2cnn3cc(-c4ccc(OCCN5CCCCC5)cc4)cnc23)ccn1: 7.24%

Sample 3 — read-out: enzyme activity; action: inhibitor; tested at: 77 µM; baseline: untreated; endpoint: remaining activity
Target: DNA polymerase theta, ATPase domain (POLQ, Homo sapiens, UniProt O75417)
Sequence of UniProt O75417 (whole entry, unmodified, looked up): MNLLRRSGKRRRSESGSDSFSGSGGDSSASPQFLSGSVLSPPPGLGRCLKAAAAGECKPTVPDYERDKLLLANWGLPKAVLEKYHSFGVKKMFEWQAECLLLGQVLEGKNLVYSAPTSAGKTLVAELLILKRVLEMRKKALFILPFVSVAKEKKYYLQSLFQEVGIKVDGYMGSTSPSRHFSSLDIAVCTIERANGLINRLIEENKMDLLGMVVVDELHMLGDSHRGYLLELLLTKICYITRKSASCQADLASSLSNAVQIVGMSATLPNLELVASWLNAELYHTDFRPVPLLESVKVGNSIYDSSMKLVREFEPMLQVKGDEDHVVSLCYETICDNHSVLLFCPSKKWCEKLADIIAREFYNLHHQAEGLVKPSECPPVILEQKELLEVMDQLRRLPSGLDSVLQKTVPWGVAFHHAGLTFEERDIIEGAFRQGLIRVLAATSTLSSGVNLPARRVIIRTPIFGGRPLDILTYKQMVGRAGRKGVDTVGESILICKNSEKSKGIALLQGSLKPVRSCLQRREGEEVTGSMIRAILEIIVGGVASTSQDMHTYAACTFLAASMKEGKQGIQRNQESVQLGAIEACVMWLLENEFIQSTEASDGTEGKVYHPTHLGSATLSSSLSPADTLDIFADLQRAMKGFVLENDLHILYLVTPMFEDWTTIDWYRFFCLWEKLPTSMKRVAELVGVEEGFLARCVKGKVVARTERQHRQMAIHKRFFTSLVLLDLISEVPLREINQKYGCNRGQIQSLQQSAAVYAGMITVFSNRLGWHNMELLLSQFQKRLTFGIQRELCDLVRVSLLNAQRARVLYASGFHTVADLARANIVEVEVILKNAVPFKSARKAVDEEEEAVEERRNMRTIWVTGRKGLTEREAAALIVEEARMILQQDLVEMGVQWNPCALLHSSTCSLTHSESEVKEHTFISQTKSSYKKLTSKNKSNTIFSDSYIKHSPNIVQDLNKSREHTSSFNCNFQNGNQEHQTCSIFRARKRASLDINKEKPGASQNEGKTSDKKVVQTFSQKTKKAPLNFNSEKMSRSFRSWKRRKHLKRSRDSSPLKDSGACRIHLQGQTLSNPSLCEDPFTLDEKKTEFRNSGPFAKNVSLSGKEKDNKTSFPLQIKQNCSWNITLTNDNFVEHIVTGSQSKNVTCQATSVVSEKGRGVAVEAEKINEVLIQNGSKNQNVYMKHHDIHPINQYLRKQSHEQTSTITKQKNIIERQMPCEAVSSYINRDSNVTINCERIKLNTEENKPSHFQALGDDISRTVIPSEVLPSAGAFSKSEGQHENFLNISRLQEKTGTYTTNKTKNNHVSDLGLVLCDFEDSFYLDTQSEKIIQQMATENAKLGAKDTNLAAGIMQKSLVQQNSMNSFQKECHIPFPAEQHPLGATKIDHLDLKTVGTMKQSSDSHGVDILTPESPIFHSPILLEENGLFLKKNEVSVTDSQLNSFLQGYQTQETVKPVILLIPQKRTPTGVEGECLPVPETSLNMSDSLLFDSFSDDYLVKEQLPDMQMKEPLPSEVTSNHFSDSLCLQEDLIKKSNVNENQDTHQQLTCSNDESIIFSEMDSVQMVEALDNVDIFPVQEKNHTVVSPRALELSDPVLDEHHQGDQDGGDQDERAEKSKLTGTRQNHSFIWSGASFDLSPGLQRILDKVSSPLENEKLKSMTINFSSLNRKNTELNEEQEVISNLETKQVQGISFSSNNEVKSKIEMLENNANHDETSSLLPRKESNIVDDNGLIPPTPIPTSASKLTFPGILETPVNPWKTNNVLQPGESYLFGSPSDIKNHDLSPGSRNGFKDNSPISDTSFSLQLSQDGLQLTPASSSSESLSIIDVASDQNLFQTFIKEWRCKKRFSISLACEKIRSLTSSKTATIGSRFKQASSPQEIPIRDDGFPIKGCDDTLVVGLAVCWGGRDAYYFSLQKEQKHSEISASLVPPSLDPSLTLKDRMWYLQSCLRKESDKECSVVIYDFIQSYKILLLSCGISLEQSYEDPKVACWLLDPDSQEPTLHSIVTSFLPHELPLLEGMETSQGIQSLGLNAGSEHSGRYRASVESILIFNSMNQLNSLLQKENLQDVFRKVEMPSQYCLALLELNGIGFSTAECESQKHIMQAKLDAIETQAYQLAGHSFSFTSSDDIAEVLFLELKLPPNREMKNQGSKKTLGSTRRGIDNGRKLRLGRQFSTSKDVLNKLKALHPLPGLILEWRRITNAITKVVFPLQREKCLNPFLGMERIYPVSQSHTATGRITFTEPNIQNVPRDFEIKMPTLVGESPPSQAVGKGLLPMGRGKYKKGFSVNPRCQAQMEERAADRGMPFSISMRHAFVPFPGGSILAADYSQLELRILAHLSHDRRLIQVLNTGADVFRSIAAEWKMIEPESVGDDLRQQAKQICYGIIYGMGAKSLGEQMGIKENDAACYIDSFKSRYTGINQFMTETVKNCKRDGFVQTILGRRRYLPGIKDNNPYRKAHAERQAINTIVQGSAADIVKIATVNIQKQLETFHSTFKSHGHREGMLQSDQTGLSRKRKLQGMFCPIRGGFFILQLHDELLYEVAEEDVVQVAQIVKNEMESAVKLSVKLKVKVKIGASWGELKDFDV
OC[C@@H](O)[C@@H](O)[C@H](O)[C@H](O)CO: 101%
Cc1nnc(C(=O)NC(C)(C)c2nc(C(=O)NCc3ccc(F)cc3)c(O)c(=O)n2C)o1: 97.8%
CCC(C)N(C)C(=O)c1cc2ccccc2c(-c2ccccc2Cl)n1 (stereo not shown): 101%
Oc1ccccc1O: 99.5%
Cc1cc(Cn2cnc3c2C[C@@H](C(=O)O)N(C(=O)C(c2ccccc2)c2ccccc2)C3)ccc1N(C)C: 89.6%
NS(=O)(=O)c1cc2c(cc1C(F)(F)F)NC(Cc1ccccc1)NS2(=O)=O (stereo not shown): 99.1%
Nc1nc(N)nc(-c2cc(Cl)ccc2Cl)n1: 95.5%
O=C1OC(=O)[C@H]2[C@@H]1[C@H]1CC[C@H]2O1: 97.3%
C=C1CC[C@H](O)C/C1=C/C=C1\CCC[C@]2(C)[C@@H]([C@H](C)/C=C/[C@H](C)C(C)C)CC[C@@H]12: 109% and 89.1%
CC1(C)Cc2c(-c3ccccc3)c(-c3ccc(Cl)cc3)c(CC(=O)O)n2C1: 70.2%
COC(=O)C1=C(C)NC(C)=C(C(=O)OCC(C)C)C1c1ccccc1[N+](=O)[O-] (stereo not shown): 99.8% and 103%
O=[N+]([O-])c1cccc2c(Br)[nH]nc12: 104%

Sample 4 — read-out: cell-free assay; method: competition with immobilised ligand; tested at: 1 µM; endpoint: remaining binding
SMILES: C[C@H](c1cccc(C#N)c1)n1cc(Cl)cc(C(N)=O)c1=N
CDC42BPA (Homo sapiens, UniProt Q5VT25): 100%
NEK5 (Homo sapiens, UniProt Q6P3R8): 93%
SIK2 (Homo sapiens, UniProt Q9H0K1): 100%
MET (Homo sapiens, UniProt P08581, M1250T): 100%
MKNK2 (Homo sapiens, UniProt Q9HBH9): 100%
WNK4 (Homo sapiens, UniProt Q96J92): 97%
MAPK14 (Homo sapiens, UniProt Q16539): 100%
MAPK4 (Homo sapiens, UniProt P31152): 82%
CSNK1E (Homo sapiens, UniProt P49674): 99%
ZAP70 (Homo sapiens, UniProt P43403): 92%
CDKL5 (Homo sapiens, UniProt O76039): 73%
EPHB1 (Homo sapiens, UniProt P54762): 100%
SRPK1 (Homo sapiens, UniProt Q96SB4): 96%
COQ8B (Homo sapiens, UniProt Q96D53): 100%
CILK1 (Homo sapiens, UniProt Q9UPZ9): 98%
SRPK2 (Homo sapiens, UniProt P78362): 100%
CDK11A (Homo sapiens, UniProt Q9UQ88): 100%
PIK3CA (Homo sapiens, UniProt P42336, E545K): 82%
